Published values from different studies.
Parts stem from different laboratories: compare values within a part only.

Sample 1 — technique: EMSA with sequencing; form: double-stranded DNA, one strand shown; matrix: in vitro; tested at: 10 and 20 nM; relative to: negative control set to 0; reading: higher = stronger binding
Target: Hepatocyte nuclear factor 3-alpha (Foxa1, Mus musculus, UniProt P35582, residues 1-468, full length assumed)
Setting: whole designed probe, mean of two concentrations, ends assumed
Construct (chain): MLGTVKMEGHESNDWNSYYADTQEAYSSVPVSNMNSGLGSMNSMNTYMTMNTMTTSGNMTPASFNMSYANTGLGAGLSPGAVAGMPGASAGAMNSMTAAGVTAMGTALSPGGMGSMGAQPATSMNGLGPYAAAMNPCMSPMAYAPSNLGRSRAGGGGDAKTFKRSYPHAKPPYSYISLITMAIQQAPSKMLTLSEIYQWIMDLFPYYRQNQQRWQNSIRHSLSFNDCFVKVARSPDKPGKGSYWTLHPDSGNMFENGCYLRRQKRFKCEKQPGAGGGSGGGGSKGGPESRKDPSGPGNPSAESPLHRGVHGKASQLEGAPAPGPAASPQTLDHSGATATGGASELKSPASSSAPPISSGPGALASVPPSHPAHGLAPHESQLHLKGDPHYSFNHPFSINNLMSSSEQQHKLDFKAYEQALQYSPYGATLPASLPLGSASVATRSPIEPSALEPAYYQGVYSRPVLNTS
`GTGAGCGGTGCCCATTGATGGGGAACGAAACTGCTAATGATGAACCATTCTGAATGCAAGCTTCCATTTACTTTACAGTACTGGATTTCTCTATGGGCCTACAGGAATGTATGGCAAAGTAAATAAGGAAACAGATAAGTGAAATAGGTCATAAGGATCTGTAATTAATTTCTCAATTTCTTCATTGTATCTGTAATCAATTTCTCAATTTCTTCATTGTTTCACTGGGATCGTGGGGAC`: “normalised bound fraction” 0.39 ratio.
`GTGAGCGGTGCCCATTGATGGGGAACCACACACACACACACACACACACACACACGAACATGAACATAATAAGAACGGGAAGAAAAGCCCAGATTTTCCTCACCATGTGCCACCCAGCCATGTTTACACTGATCACAAGTCCTCAGGTTAATCTTCCCTGGCTGAAAACATTCACATGTGCAGTTTACCAGTGTGCAACGGATGGCCTGAAAAATAAAGTTTCACTGGGATCGTGGGGAC` — result for “normalised bound fraction”: 0.188 ratio.
Under “normalised bound fraction”, `GTGAGCGGTGCCCATTGATGGGGAACGAAATTAGTTCTTTACTACTTAAATAAAATTACATCCTATGATATAAAATGGCATTTGTTTGTTTTTAGTCATTATAACACTGTATACTATTGGTGTTTACTTTGAATAAGAATCATGTGGTACAATAGGGAAGCAATTTCTGCAAATACATTACTTCTTTAATTCAAAACATTGTTTATATACAATTGTGATTTTCACTGGGATCGTGGGGAC` is recorded as 0.525 ratio.
`GTGAGCGGTGCCCATTGATGGGGAACCACTCAGCTGTTTTCTTAAACTTGGTTGAATAACTGGTATTCTTCCTGCTCACAAAGTCTTTGTTAGTGTGCATATTGCAAAACCATCCTAAGTAATCTGTCTGTGTCATCTGTATTAAAGGGAAGTTATGCATGGATTAGTGTATAATAGCATGGGTTAGGGAGAAAAATGAGTCACCAAAGTAGCTGGTTCTTTCACTGGGATCGTGGGGAC`: “normalised bound fraction” -0.0448 ratio.

Sample 2 — technique: RNA Bind-n-Seq; form: RNA; matrix: in vitro; tested at: not given; setting: RNA with constant flanks, ends assumed; relative to: input RNA pool; reading: higher = stronger binding
Target: RING finger protein unkempt homolog, zinc fingers 1-6, GST-SBP tag (UNK, Homo sapiens, UniProt Q9C0B0, residues 30-357)
All sequences stand within: GGGAGUUCUACAGUCCGACGAUC … CAACAGAGGAUUGAGCAUCA
Target sequence (chain): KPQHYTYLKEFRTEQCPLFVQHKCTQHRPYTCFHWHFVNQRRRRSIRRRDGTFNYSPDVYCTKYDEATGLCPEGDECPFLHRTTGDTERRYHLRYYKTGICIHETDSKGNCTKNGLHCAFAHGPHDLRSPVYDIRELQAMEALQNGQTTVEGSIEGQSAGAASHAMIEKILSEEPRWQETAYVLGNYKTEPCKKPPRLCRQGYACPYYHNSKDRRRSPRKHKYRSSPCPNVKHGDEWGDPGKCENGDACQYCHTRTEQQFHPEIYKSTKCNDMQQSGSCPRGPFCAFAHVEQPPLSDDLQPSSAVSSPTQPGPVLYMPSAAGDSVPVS
`GGGUUGCUUCCCAUCCCAACCUCCAGUCCUCUGACGGCAGUGAGUAGUCUUGGUGUUUCACUCCGCAGUUUGGGAGCUAUCCCAGCAGCAGCGCUGGACCCAAAUAUUACAACACUUGGA` has a bound/input enrichment of 0.0626 ratio.
The bound/input enrichment of `GACUACCAGGCUGCUGGCGAUGAUGAGAUCUCCUUUGACCCUGAUGACAUCAUCACCAACACCGAAAUGAUUGACGAUGGCUGGUGGCGUGGGGUGUGCAAGGGCAGAUACGGGCUCUUC` is reported as 0.166 ratio.
`UCGAGCCGAUAACAGGGUUCGGGUGUCUGGUGUGUGACCAUCACAGGGUUUGUGGAUGCACUCCGAUGUUUGCAAUGAGCACUGUGGCUGGCAUGCCCCAGUAUUUUGGAUACCAAUGCA` has a bound/input enrichment of 0.147 ratio.
`UUUUCCUUCUUCAUGUGACCUAUGAAAAUAAAUGAAUAAUAACUCAAAAAAAGUACUUUGCCGUUUUUGUCUUUCCUUAAGUAAAACUAAUCUUUUCUUUUAAAAAAUUCUUUUAAGGCC` gave a bound/input enrichment of 0.498 ratio.
For `UAUAAUAAUCAUGAAAUUCGUUCCGGGAAGCACAUUGGUGUCUGCAUCUCAGUUGCCAACAACCGGCUUUUUGUGGGCUCGAUUCCUAAGAGUAAAACCAAGGAGCAGAUUCUUGAGGAA`, the bound/input enrichment was 0.19 ratio.
The bound/input enrichment of `AAGAUUUGGACCUUGGAGCUGAACCAGGGAGCUAGCAAAAGUAAAGCAGACUUAUAAAAUUACCGCUAUGUGCAGCUGCACAACACAGUCCUUCCACUAGCAGCUGUGUUAAAGUAUUUA` is reported as 1.02 ratio.
`UCUGUCACUCCUCUUAUCUGAGAAGUGACCUUUUAUUUUUAAGAUGACUACAGACCUAUUUUCCGAUAUGUUUUCAGUACAAUUUUGAACAGCAACUUUUUAAUUAAACAUCUUCCAGUG` gave a bound/input enrichment of 0.623 ratio.

Sample 3 — technique: protein binding microarray; form: double-stranded DNA, one strand shown; matrix: in vitro; tested at: not given; relative to: not given; reading: higher = stronger binding
Target: Histone acetyltransferase KAT6A, both winged helices, GST fusion (KAT6A, Homo sapiens, UniProt Q92794, residues 1-181)
Setting: 8-mer, flanks averaged, mean of 2 arrays, mostly near background
Residues (chain): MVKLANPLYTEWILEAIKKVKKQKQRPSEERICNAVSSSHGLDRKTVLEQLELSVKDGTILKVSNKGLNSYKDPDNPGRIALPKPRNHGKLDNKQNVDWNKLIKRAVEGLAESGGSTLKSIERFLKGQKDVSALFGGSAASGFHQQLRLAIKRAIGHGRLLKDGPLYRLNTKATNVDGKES
`ATCACTAG` gave an E-score of -0.115.
With `CTGTGTGC` the E-score was -0.0433.
`GAATAAAC` gave an E-score of -0.0554.
`ATGCGCAC` has an E-score of 0.269.
`ATACAAAT` gave an E-score of 0.0274.
`CCCCAAAA` has an E-score of -0.0674.
For `GGGCCGTA`, the E-score was 0.208.
With `AAAGAAGA` the E-score was -0.118.

Other studies, line by line
`PhoQ, residues 284 288 289 292 302 303 SLCLSL` has a fold induction of 1.42 (PhoP, residues 12 14 15 18 19 MHTVL (Escherichia coli, UniProt P23836); Sort-seq, refers to: YFP reporter; E. coli; PhoQ-PhoP variant library, added: 10 µM Mg2+; relative to: high Mg2+ state, higher = stronger signaling).
